Experimental data of several laboratories.
Lines come from different studies, so protocols differ. Values joined by “and” are separate records of one study, mostly repeats; a detail may differ. ± marks the error that the study gave. Values after ≈ are worked out from the molar mass of the structure shown.
Chain of UniProt P54762 (whole entry, looked up): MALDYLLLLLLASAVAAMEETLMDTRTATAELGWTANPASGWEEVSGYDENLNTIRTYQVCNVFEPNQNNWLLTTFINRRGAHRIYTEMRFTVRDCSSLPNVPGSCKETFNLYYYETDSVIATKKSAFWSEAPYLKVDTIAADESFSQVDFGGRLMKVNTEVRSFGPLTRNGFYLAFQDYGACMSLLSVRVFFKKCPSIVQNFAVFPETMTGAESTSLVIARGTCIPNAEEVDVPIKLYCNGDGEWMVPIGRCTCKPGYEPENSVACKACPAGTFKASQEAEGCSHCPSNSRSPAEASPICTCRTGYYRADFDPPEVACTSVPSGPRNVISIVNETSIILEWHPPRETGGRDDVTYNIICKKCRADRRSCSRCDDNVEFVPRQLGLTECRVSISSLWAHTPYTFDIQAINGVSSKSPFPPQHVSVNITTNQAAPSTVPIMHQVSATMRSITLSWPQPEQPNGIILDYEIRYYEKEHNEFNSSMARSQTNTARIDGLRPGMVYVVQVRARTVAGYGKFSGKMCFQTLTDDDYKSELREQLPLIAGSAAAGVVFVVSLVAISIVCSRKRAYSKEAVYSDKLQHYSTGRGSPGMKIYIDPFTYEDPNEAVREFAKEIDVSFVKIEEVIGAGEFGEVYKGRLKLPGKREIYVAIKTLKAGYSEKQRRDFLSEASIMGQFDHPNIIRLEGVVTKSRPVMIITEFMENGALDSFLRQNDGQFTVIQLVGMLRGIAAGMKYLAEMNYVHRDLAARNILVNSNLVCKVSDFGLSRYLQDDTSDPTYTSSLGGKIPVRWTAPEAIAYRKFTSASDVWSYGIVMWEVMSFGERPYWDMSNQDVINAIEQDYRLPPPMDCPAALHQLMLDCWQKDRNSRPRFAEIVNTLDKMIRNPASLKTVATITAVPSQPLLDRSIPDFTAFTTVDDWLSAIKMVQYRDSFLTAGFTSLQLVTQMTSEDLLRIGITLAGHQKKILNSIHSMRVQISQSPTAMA
Chain of UniProt Q7RTN6 (whole entry, looked up): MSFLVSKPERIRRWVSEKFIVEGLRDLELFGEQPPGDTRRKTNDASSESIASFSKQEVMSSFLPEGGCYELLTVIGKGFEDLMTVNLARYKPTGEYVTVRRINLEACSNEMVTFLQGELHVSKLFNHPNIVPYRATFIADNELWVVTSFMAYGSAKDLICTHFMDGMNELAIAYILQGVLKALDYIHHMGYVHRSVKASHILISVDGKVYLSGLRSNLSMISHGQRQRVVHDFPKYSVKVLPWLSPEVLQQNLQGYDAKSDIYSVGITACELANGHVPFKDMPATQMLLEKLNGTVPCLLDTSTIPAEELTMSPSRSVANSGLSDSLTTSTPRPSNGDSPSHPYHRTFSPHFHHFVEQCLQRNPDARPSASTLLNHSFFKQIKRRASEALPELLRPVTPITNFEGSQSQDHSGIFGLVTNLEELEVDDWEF
Chain of UniProt Q96PN8 (whole entry, looked up): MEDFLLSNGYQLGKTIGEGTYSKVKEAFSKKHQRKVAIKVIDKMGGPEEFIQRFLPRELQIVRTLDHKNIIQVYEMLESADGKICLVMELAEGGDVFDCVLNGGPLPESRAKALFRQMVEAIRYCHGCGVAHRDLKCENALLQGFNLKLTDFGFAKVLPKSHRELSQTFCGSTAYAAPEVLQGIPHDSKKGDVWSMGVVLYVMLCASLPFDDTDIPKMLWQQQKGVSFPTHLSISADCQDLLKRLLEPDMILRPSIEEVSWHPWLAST
Chain of UniProt Q63531 (whole entry, looked up): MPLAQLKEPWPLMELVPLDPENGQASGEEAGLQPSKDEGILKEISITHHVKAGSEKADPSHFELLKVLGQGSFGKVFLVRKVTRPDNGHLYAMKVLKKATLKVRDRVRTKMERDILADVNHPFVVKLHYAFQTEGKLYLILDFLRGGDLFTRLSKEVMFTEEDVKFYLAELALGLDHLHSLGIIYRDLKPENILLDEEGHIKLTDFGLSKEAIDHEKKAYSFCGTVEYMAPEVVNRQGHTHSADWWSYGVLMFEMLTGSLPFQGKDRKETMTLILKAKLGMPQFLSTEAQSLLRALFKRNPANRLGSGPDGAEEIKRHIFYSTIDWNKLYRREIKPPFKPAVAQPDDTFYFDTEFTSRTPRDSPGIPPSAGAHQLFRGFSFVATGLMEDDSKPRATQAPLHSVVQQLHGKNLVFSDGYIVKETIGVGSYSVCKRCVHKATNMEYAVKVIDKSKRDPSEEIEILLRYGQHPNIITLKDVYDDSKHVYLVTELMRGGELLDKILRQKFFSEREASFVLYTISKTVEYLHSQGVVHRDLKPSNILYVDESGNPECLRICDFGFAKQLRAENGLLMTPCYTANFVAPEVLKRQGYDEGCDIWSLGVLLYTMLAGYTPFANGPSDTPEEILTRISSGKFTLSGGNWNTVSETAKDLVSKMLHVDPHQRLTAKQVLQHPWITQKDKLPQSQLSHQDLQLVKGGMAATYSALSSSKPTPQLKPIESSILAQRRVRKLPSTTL

Compound | target or system | assay | system | setting | scale | measurement | value
CC[C@H](C)[C@H](NC(=O)[C@H](C)NC(=O)[C@H](CCC(=O)O)NC(=O)[C@H](CCC(=O)O)NC(=O)[C@H](CC(C)C)NC(=O)[C@H](CCCCN)NC(=O)[C@H](CCCCN)NC(=O)[C@H](CCSC)NC(=O)[C@H](CCC(=O)O)NC(=O)[C@H](Cc1ccc(O)cc1)NC(=O)[C@H](CCC(=O)O)NC(=O)[C@H](CC(C)C)NC(=O)[C@H](CC(=O)O)NC(=O)[C@H](CC(C)C)NC(=O)[C@H](Cc1ccccc1)NC(=O)[C@@H](NC(=O)[C@@H](NC(=O)[C@H](CC(N)=O)NC(=O)[C@@H](NC(=O)[C@H](CCC(N)=O)NC(=O)[C@H](CC(=O)O)NC(=O)[C@H](CC(C)C)NC(=O)[C@@H](N)CO)[C@@H](C)CC)C(C)C)[C@@H](C)O)C(=O)N[C@@H](CCCCN)C(=O)N[C@@H](CCCCN)C(=O)N[C@@H](CC(C)C)C(=O)N[C@@H](CCC(=O)O)C(=O)N[C@@H](CCC(=O)O)C(=O)N[C@@H](CO)C(=O)N[C@@H](Cc1ccc(O)cc1)C(=O)N[C@H](C(=O)N[C@@H](CC(=O)O)C(=O)N[C@@H](CC(C)C)C(=O)N[C@@H](CCCCN)C(=O)N[C@@H](CCC(=O)O)C(=O)N[C@@H](CC(C)C)C(=O)O)[C@@H](C)CC | H9/HIV-1 IIIB and TZM-bl cells | cell-cell fusion, luciferase reporter | – | 36 h, 37 °C | – | IC50 | > 5 µM
CC(C)CC(C(=O)N1CC2(CC1C#N)C(=O)Nc1ccccc12)N(C)C(=O)c1cc2c(F)cc(F)c(F)c2[nH]1 (stereo not shown) | Human coronavirus 229E | cytopathic effect | MRC5 | 0.1542 µM | – | inhibition | 99.4%
CC1(C)C(NC(=O)C(=NOC2(C(=O)O)CC2)c2csc(N)n2)C(=O)N1OS(=O)(=O)O (stereo not shown) | Shigella flexneri | agar dilution | ATCC 12022, susceptible | – | – | MIC | 0.125 µg/mL (≈ 0.27 µM)
Cc1nc2cccc(OCC(C)(C)C(=O)NC(C)C)c2c(N)c1C(=O)[O-].[Na+] | Salmonella typhimurium | – | TA100 | 2.0 mg per plate, without S9, plate incorporation | – | revertant colonies per plate | 135 ± 13
CC[C@@H]1CN2CCc3c([nH]c4cccc(OC)c34)[C@@H]2C[C@@H]1/C(=C\OC)C(=O)OC | rabbit anti-mitragynine polyclonal IgG | antigen binding, competitor, competitive indirect ELISA | 10% methanol | 60 min both antibody incubations | – | IC50 | 1 µg/mL
CC(=O)NCCCC[C@@H]1NC(=O)[C@H](Cc2c[nH]c3c(C)cccc23)NC(=O)[C@H]([C@@H](C)O)NC(=O)[C@H](CC(N)=O)NC(=O)[C@@H](NC(C)=O)C(C)(C)SSC(C)(C)[C@@H](C(=O)N[C@@H](Cc2ccc(OCCN)cc2)C(=O)N[C@@H](Cc2ccc3ccccc3c2)C(=O)NC2(C(=O)N[C@@H](CCC(=O)O)C(=O)N[C@@H](CC(N)=O)C(=O)N[C@@H](Cc3cccnc3)C(=O)N(C)CC(N)=O)CCOCC2)NC1=O | Albumin (ALB, Homo sapiens, UniProt P02768) | equilibrium dialysis | purified human albumin | 0.1 µM | – | unbound fraction | 74.3 ± 4.3 % unbound
CC[C@H](C)[C@@H]1NC(=O)[C@H](Cc2c[nH]cn2)NC(=O)[C@H](CC(N)=O)NC(=O)[C@H](CO)NC(=O)[C@H](CCC(N)=O)NC(=O)[C@@H](NC(=O)CN)CSSC[C@@H]2NC(=O)CNC(=O)[C@H](C)NC(=O)[C@H](CC(C)C)NC(=O)[C@@H]3CSSC[C@@H](C(=O)NCC(=O)O)NC(=O)[C@H](Cc4ccccc4)NC(=O)CNC(=O)[C@H](CC(N)=O)NC(=O)[C@@H]4CCCN4C(=O)CNC(=O)[C@H](CSSC[C@H](NC(=O)[C@H](CCCNC(=N)N)NC(=O)[C@H](CC(N)=O)NC(=O)[C@H](Cc4c[nH]cn4)NC(=O)[C@H](CCCCN)NC(=O)[C@H](CC(C)C)NC1=O)C(=O)N[C@@H](CCCCN)C(=O)N[C@@H](CCC(N)=O)C(=O)N[C@@H](CC(=O)O)C(=O)N[C@@H](CO)C(=O)N[C@@H](CC(=O)O)C(=O)N3)NC(=O)[C@H](C(C)C)NC2=O | HEK293-TB | Wnt signaling | – | together with: exogenous Wnt3a | – | IC50 | > 100 µM
O=C(O)c1ccc(-c2nc(-c3ccccc3Cl)c3sccn23)cc1 | – | – | CD34+ hematopoietic stem cells, human | 0.1 mM | – | CFU-GEMM colony count | 34 and 43
Cc1nc2cc(Br)ccn2c1C(=O)NCc1ccc2oc(-c3ccc(Cl)cc3)nc2c1 | Mycolicibacterium smegmatis | – | – | – | – | MIC90 | > 100 µM
COc1ccccc1-c1n[nH]c2nc(NC3CCN(C(=O)Cc4ccc(F)cc4F)CC3)ncc12 | – | bead binding, competition bead pull-down, item: LINJ.25.2230 | Leishmania donovani axenic amastigote extract | 10 µM | relative to: vehicle | relative abundance | 0.4
CC(C)C[C@H](NC(=O)[C@H](CC(=O)O)NC(=O)[C@@H](NC(=O)[C@H](CCC(=O)O)NC(=O)[C@H](CCCCN)NC(=O)[C@H](Cc1ccc(O)cc1)NC(=O)[C@H](CCCCN)NC(=O)[C@H](Cc1c[nH]cn1)NC(=O)CNC(=O)CN)[C@@H](C)O)C(N)=O | HCV IRES RNA | MALDI-TOF mass spectrometry, item: 3'-phosphate products | hepatitis C virus | – | – | initial cleavage rate | 2.8 ± 0.2 %/min
COc1ccccc1-c1n[nH]c2nc(N[C@H]3CC[C@H](NS(=O)(=O)CC(C)C)CC3)ncc12 | – | bead binding, competition bead pull-down, item: LMJF.36.6910 | Leishmania donovani extract | 10 µM | relative to: vehicle | relative abundance | 1.33
COc1ccccc1-c1ccncc1C(=O)Nc1nnc(OCc2ccc(Cl)cc2)s1 | DLD-1 parental (BRCA2 WT) | – | – | 8 µM, average of 3 runs | relative to: untreated | colony survival | 98.6%
O=C1NC(=O)c2c1c1cc(F)c[n+]3c1c1c2c2cc(O)ccc2[n]1[Ru-4]312([N]=C=S)[S+]3CC[S+]1CC[S+]2CC3 (stereo not shown) | Ribosomal protein S6 kinase alpha-1 (Rps6ka1, Rattus norvegicus, UniProt Q63531) | enzyme activity | – | 100 nM, rat enzyme, together with: 10 µM ATP | relative to: untreated | remaining activity | 5%
CCc1nc2ccc(C(F)(F)F)cn2c1C(=O)NCc1ccc2oc(-c3ccc(OC(F)(F)F)cc3)nc2c1 | Mycolicibacterium smegmatis | – | – | – | – | MIC90 | > 100 µM
CC(C)[C@H]1NC(=O)C[C@H]2/C=C/CCSSC[C@@H](NC1=O)C(=O)N[C@H](Cc1cccc3ccccc13)C(=O)NCC(=O)O2 | Testis-specific serine/threonine-protein kinase 3 (TSSK3, Homo sapiens, UniProt Q96PN8) | enzyme activity, inhibitor | – | 10 µM | – | inhibition | 23.8%
Nc1ncc(-c2cc(-c3cnn(CC(F)(F)F)c3)ncc2F)nc1C(=O)NC1CNCC(F)C1 (stereo not shown) | ABL1(T315I)-nonphosphorylated | KINOMEscan competition binding | – | 1 µM | relative to: DMSO control | remaining binding | 100%
CS(C)(=O)=Nc1ccc(-c2ccc(-c3nc4cc(O[C@@H]5CO[C@H]6[C@@H]5OC[C@H]6O)[nH]c4cc3F)cc2)cc1 | Ephrin type-B receptor 1 (EPHB1, Homo sapiens, UniProt P54762) | enzyme activity, inhibitor | – | 10 µM | – | inhibition | 3%
CN(C)[C@H]1C[C@@]23CC[C@@]4(O2)C(=CC[C@]2(C)[C@@H](c5ccc6ccncc6c5)CC[C@H]24)C=C3[C@@H](O)[C@@H]1O | STE20-related kinase adapter protein alpha (STRADA, Homo sapiens, UniProt Q7RTN6) | ATP probe labelling, inhibitor, KiNativ profiling | – | 0.1 µM | – | inhibition | -6.6%
Cc1cc(C(=O)Nc2nc3cccc(C)c3n2[C@H]2CCCCN(C(=O)/C=C/CN(C)C)C2)ccn1 | Trypanosoma brucei brucei | – | 2T1 parental | 5 x EC50, 48 h | relative to: time 0 h | cell growth | 50% and 40% and 37.3%
CC(C)(C)C(=O)OCOP(=O)(OCOC(=O)C(C)(C)C)C1CCCN(O)C1=O (stereo not shown) | MDA-MB-231 | – | – | – | – | Log10TGI | -4.7 log M
CC[C@H](C)[C@H](NC(=O)[C@H](CO)NC(=O)[C@H](Cc1ccc(O)cc1)NC(=O)[C@H](Cc1ccc(O)cc1)NC(=O)[C@H](CC(N)=O)NC(=O)CNC(=O)[C@H](CO)NC(=O)[C@H](Cc1ccc(O)cc1)NC(=O)[C@H](CO)NC(=O)[C@H](CO)NC(=O)[C@H](CC(N)=O)NC(=O)COCCOCCNC(=O)CN1CCN(CC(=O)O)CCN(CC(=O)O)CCN(CC(=O)O)CC1)C(=O)N[C@@H](CC(C)C)C(N)=O [copper-64 labelled] | – | dynamic PET | KPC mouse Ptf1a-CreER tdTomato, pancreas | intravenous, 4.6 MBq/mouse, 0.1 min, 84 d after tamoxifen | – | tissue uptake | 0.36 %ID/mL
Cc1cc(Oc2nc(N3CC[C@@H](c4ccncc4)C3)ncc2F)[nH]n1 | Mycobacterium tuberculosis | OD | H37Rv PurF CRISPRi knockdown | 0.25 µM, together with: anhydrotetracycline low | – | normalised growth | 2% and 1%
NC[C@]1(CC(=O)O)CC[C@H]([18F])CC1 | – | PET | rhesus monkey, whole brain | dose not given, together with: gabapentin pre-injection | relative to: baseline | K1 change | -35%
O=C1NC2(CC2)COc2ncc(F)cc2[C@H]2COCCN2c2ccn3ncc1c3n2 | – | – | Sprague-Dawley rat, male, serum | oral, 2.5 mg/kg/day, end of recovery, 4-week subacute toxicity | – | serum total bilirubin | 1.5 ± 0.6 µmol/L
